# Published values pooled from the literature.
# Every numbered part comes from another study and shows a few of its results, in no order. Positions count from the first letter of the parent shown.

# Series 1
# Target: RNA binding protein fox-1 homolog 2, RRM domain, GST-SBP tag (RBFOX2, Homo sapiens, UniProt O43251-10, residues 100-194)
# Method: RNA Bind-n-Seq
# Form: RNA
# Medium: in vitro
# Concentration: 365 nM
# Notes: natural RNA segment, single round, ends assumed
# Baseline: no-protein control
# Direction: higher = stronger binding
# Residues (chain): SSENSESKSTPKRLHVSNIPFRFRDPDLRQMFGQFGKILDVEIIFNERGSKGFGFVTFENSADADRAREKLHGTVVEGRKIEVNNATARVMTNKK
Sequence,RBNS enrichment (R)
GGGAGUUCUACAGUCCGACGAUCACGAUGCGAGCCUUCCGGUCAGUGACGUGUGGGCAGAAGCGCACGGAGCCUGCCUGCCUCUGCCGUCCUCAGUUUCCUUUCAUGAGGCUUCUAGCCAAAGAUGAUAAAGGUGGAAUUCUCGGGUGCCAA,0.577
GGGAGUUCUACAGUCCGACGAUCCUUAGUUUUACAAGAAAAACCAUUUGCUACUGAAUGCUUAAACUAAUUUUAGUGUUUAAUGUUACAUGCUUAAAUUUUUUUCAGUUUUAACAGUGGCAUAUUUAGGCAUGUGGAAUUCUCGGGUGCCAA,0.4
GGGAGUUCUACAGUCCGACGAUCAACCAGAAGGAAGGGAAGGAGUUUUUGAAAAACUACCAGAAGACGAAGUUUGACACCUAUAUCCCCAUGUUUUGUGACUACAUCCCGUAGUGUCCUGCCUAUUCCUUUCUUGGAAUUCUCGGGUGCCAA,0.332
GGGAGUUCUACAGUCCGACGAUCUAGUAAGUCUUUUAGGAUGAUUUUAAUUUAGUCGUGCGUCAUUUUCUGAUUCUCAUCAUUGGGAGAUCUUAAAUCUUAGCAAGCAUUAGCAAUAUUAAAUGCCAAAAUUCUGGAAUUCUCGGGUGCCAA,0.506
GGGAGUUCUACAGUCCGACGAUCCAAAAGGAAGUGAUUAUGCAGCUGUGUGUAGAGUUUCAGAGCAAGUUCCUCAGCAGUGUAGAUGAAUUCACAUCAUUUAUGUUUUAACGGCGUUUUUUUGGAAAGCAUAAUGGAAUUCUCGGGUGCCAA,0.426
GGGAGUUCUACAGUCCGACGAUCGUGUUAACUUGUUUAGUCCCCUUUACUCUGAGAUAGGUACUGUUACCCCAGUUUUACAAAUGGCUAAGCUGAAGCAGAGAUGUUGAAGGAUCCUACCUAAGGGGCACAACUGGAAUUCUCGGGUGCCAA,0.392
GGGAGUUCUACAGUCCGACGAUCUGUAAAAAACAAAAGGCCUUAUGUGAUCUGUAUCAUAGUUAAUAAAUGAAUCUUGUAAAAAACCAAACCUGAGAGAAGUGAAGGGGGGCCUCCUCCUUACCGGGCCAGUGUGGAAUUCUCGGGUGCCAA,0.579
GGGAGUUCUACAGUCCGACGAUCCAAGUGAAAAAGAAACACUGAGGUUUUAAGCUGCUGUAUAUAGCUUGUGAGAAACCUCUUUUCUUUAAAAUUUACAUAAUCACAAGAAAGGAAAGAAUUACAGUUGGACUUGGAAUUCUCGGGUGCCAA,0.405
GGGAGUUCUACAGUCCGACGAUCGUGCCCUCCACCUAGGGAAGCAUGAACCACAGGGUCCCUGAGGGCCUUCGACAAAAGUGUGUAUUUGUCCCGGGGAGGGUAGCAGUGGGCCAUGGGGCUUCUUGUGCCCUUGGAAUUCUCGGGUGCCAA,2.29
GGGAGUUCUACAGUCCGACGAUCUCCUCUGAACCAUGAUGCAGUAGGUAAGAAGUUAUUAUGCGUAUAUACAUAUAUACAUUCAUAUACGACAAAGUAGGAGCUGUCCCCUUAGGAUGCAUAGCUGCCCCUAGUGGAAUUCUCGGGUGCCAA,0.378

# Series 2
# Target: CCNA2, cyclin fold, Cln2 fusion (human)
# Method: yeast growth competition, sequencing
# Medium: yeast
# Notes: strong parent motif
# Baseline: not given
# Direction: higher = stronger binding
# Starting sequence: RBL1 docking peptide (human); GSAKRRLFGEDPP
Substitution,normalised enrichment score
F8E,-0.568
F8Y,1.81
E10L,5.58
G9D,5.99
K4C,4.29
K4G,0.91

# Series 3
# Substance: PhoQ, residues 284 288 289 292 302 303 SCCLKL
# Method: Sort-seq
# Measured: YFP reporter
# Medium: E. coli
# Notes: PhoQ-PhoP variant library
# Added: 10 µM Mg2+
# Baseline: high Mg2+ state
# Direction: higher = stronger signaling
target,fold induction
"PhoP, residues 12 14 15 18 19 QQAYL (Escherichia coli, UniProt P23836)",5.59
"PhoP, residues 12 14 15 18 19 LFHKL (Escherichia coli, UniProt P23836)",0.352
"PhoP, residues 12 14 15 18 19 GMGLL (Escherichia coli, UniProt P23836)",1.87

# Series 4
# Target: Interferon regulatory factor 5, full length, phosphomimetic (IRF5, Homo sapiens, UniProt Q13568-2, residues 1-514, K96S/S451D/S453D/S456D/S462D)
# Method: protein-binding microarray
# Form: double-stranded DNA, one strand shown
# Medium: in vitro
# Concentration: 250 nM
# Notes: 60-bp whole probe
# Added: salmon DNA 0.4 mg/ml
# Baseline: random background probes
# Direction: higher = stronger binding
# Shared flanks, not repeated: GCCTAGCAC … GTCTTGATTCGCTTGACGCTGCTG
Sequence,log fluorescence [z-score]
TTAGGTATCGGGTATCGCTTAGTGCTA,4.71
TTAGATATCGGCTATCGATTAGTGCTA,5.49
CTCTGCTTGTATCTGGGTTCGTGCTAG,0.0267
TCATTTTTGGTAATAGTACTGTGCTAG,1.88
TTAGAGATCGGGTATCGATTAGTGCTA,3.35
GACTGTATCGACTTTCGGGACGTGCTA,6.8
TTCACTTTCCAAAACATGAAGTGCTAG,1.42
TTTGTAATCGAAATCTTCATGTGCTAG,1.78

# Some of these lines once more (series 2):
Substitution,normalised enrichment score
E10L,5.58
K4G,0.91
F8E,-0.568
